{"data": "Measurements from different studies", "note": "Each numbered part is a random draw from the data of one study; scales do not carry over between parts. Changes are numbered by the printed parent chain."}
{"data": "Study 1", "target": "CCNA2, cyclin fold, Cln2 fusion (human)", "technique": "yeast growth competition, sequencing", "matrix": "yeast", "setting": "strong parent motif", "baseline": "not given", "reading": "higher = stronger binding", "starting sequence": "RBL1 docking peptide (human); GSAKRRLFGEDPP; partner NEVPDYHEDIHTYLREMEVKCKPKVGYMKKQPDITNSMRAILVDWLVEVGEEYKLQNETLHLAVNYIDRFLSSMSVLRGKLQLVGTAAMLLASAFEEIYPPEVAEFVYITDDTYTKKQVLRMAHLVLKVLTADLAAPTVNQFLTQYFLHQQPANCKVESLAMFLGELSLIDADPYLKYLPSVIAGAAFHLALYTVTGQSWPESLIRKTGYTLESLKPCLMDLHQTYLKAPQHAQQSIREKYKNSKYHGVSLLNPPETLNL"}
{"Change": "GSAHRRLFGEDPP [K4H]", "normalised enrichment score": 2.41}
{"Change": "GSAKRELFGEDPP [R6E]", "normalised enrichment score": 3.34}
{"Change": "FSAKRRLFGEDPP [G1F]", "normalised enrichment score": 6.33}
{"Change": "GSAKRRLCGEDPP [F8C]", "normalised enrichment score": 0.6}
{"Change": "GSAKRRLFHEDPP [G9H]", "normalised enrichment score": 5.52}
{"Change": "GNAKRRLFGEDPP [S2N]", "normalised enrichment score": 5.49}
{"Change": "GSAKRRLNGEDPP [F8N]", "normalised enrichment score": 1.17}
{"Change": "GSACRRLFGEDPP [K4C]", "normalised enrichment score": 4.29}
{"data": "Study 2", "target": "Interferon regulatory factor 7, full length, phosphomimetic (IRF7, Homo sapiens, UniProt Q92985, residues 1-503, S101K/S471D/S472D/S475D/S476D/S477D/S483D/S484D/S487D)", "technique": "protein-binding microarray", "form": "double-stranded DNA, one strand shown", "matrix": "in vitro", "concentration": "250 nM", "setting": "60-bp whole probe", "added": "salmon DNA 0.4 mg/ml", "baseline": "random background probes", "reading": "higher = stronger binding", "all sequences stand within": "GCCTAGCAC … GTCTTGATTCGCTTGACGCTGCTG", "sequence of UniProt Q92985 (whole entry, unmodified, looked up)": "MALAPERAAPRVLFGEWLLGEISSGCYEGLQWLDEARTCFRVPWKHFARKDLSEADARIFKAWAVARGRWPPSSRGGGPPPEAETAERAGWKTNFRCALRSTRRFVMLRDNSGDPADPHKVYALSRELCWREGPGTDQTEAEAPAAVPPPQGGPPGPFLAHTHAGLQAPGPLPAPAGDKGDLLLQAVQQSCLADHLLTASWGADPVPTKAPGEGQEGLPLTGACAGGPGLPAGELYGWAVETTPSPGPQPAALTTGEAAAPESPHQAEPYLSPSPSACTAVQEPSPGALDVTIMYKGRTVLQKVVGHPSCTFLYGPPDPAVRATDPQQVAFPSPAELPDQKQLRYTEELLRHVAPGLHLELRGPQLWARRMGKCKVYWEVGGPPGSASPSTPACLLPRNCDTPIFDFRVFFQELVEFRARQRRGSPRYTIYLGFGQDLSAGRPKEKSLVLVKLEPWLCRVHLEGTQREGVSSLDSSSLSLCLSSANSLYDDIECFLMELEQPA"}
{"Sequence": "GAGGATATCGGGTTTCGAGACGTGCTA", "log fluorescence": "2.57 z-score"}
{"Sequence": "TCATTTATTTTTTTTATACTGTGCTAG", "log fluorescence": "1.56 z-score"}
{"Sequence": "GACGGGATCGACTATCGGGACGTGCTA", "log fluorescence": "-0.44 z-score"}
{"Sequence": "GAAGGTTCCGGTTTCGGGACGTGCTAG", "log fluorescence": "8.28 z-score"}
{"Sequence": "GGCTTTTTAATGAATGAAGAGGTGCTA", "log fluorescence": "0.104 z-score"}
{"Sequence": "GACGACATCAGACTGGAGACGTGCTAG", "log fluorescence": "-0.36 z-score"}
{"Sequence": "TTAGGTTTCGGTTCCGGTGAGTGCTAG", "log fluorescence": "12.4 z-score"}
{"Sequence": "GAACCTTCCCCTCTAGGTTCGTGCTAG", "log fluorescence": "2.76 z-score"}
{"data": "Further values, each from its own experiment", "P1": "PafA, mature enzyme, eGFP fusion (Elizabethkingia meningoseptica, UniProt Q9KJX5); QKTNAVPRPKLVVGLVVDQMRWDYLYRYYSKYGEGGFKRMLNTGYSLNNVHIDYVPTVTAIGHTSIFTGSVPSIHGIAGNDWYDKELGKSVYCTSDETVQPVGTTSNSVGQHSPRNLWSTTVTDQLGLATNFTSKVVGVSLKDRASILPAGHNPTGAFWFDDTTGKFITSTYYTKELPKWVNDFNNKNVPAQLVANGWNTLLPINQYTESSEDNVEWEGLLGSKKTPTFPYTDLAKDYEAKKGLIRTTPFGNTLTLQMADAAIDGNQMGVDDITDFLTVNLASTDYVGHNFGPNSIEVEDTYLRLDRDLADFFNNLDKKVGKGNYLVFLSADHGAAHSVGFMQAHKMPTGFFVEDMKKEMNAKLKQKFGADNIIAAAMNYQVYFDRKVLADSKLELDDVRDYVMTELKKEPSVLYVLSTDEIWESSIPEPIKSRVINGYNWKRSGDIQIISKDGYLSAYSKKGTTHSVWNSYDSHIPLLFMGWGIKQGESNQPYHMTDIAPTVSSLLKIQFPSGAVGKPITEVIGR"}
{"Substance": "RBM22 (Homo sapiens, UniProt Q9NW64)", "target or system": "CWC15 (Homo sapiens, UniProt Q9P013)", "test": "cross-linking MS", "system": "cell fractions", "conditions": "added: DMTMM", "quantity": "cross-linked residues", "result": "E122 to K18"}
{"Substance": "P1 T405V", "target or system": "tungstate, free oxyanion", "test": "microfluidic competitive inhibition", "system": "in vitro, cell-free expressed", "conditions": "not given, derived from inhibition constants, unchanged parent 2230 nM", "how to read": "lower = stronger binding", "quantity": "oxyanion analog dissociation constant", "result": "2.22 µM"}
{"Substance": "PAXIP1 (Homo sapiens, UniProt Q6ZW49)", "target or system": "WDR33 (Homo sapiens, UniProt Q9C0J8)", "test": "cross-linking MS", "system": "cell fractions", "conditions": "added: DSSO", "quantity": "cross-linked residues", "result": "K244 to K264"}
{"Substance": "PWP2 (Homo sapiens, UniProt Q15269)", "target or system": "IMP3 (Homo sapiens, UniProt Q9NV31)", "test": "cross-linking MS", "system": "cell fractions", "conditions": "added: DSSO", "quantity": "cross-linked residues", "result": "K604 to K165"}
{"Substance": "HNRNPDL (Homo sapiens, UniProt O14979)", "target or system": "HNRNPK (Homo sapiens, UniProt P61978)", "test": "cross-linking MS", "system": "cell fractions", "conditions": "added: DSSO", "quantity": "cross-linked residues", "result": "K311 to K405"}
{"note": "Excerpt of the above (study 2):"}
{"Sequence": "GAAGGTTCCGGTTTCGGGACGTGCTAG", "log fluorescence": "8.28 z-score"}
{"Sequence": "GAGGATATCGGGTTTCGAGACGTGCTA", "log fluorescence": "2.57 z-score"}
{"Sequence": "GGCTTTTTAATGAATGAAGAGGTGCTA", "log fluorescence": "0.104 z-score"}
